Assay results pooled from the literature.
Each numbered part is a random draw from the data of one study; scales do not carry over between parts. Substitutions count along the parent as printed.

Set 1 — technique: competition protein-binding microarray; molecule type: double-stranded DNA, one strand shown; matrix: in vitro; concentration: 2 µM; added: Cbf1 competitor, 0.05 µM; reading: higher = stronger binding; quantity: fluorescence intensity
Target: Phosphate system positive regulatory protein PHO4, full length, GST-tagged (PHO4, Saccharomyces cerevisiae, UniProt P07270, residues 1-312)
Setting: whole 60-bp probe, lowest competitor level
Construct (chain): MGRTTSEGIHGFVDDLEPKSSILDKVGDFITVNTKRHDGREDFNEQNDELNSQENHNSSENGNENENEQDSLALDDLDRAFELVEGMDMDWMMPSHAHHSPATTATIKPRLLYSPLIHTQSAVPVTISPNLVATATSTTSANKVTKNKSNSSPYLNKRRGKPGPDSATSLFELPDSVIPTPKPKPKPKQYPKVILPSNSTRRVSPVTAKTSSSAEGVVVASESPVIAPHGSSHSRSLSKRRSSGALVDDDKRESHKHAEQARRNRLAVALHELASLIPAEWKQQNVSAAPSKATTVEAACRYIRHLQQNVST
GTCTTGTCTCATTACCACGTGTTTTTCCCCACTTCAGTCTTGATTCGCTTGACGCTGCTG: 16400 a.u.
CTTCTGTAAATTTTTCACGTGCGCTGACGCGCCCCGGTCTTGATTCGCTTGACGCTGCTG: 13700 a.u.
AACAACACCAGCACCTTCGTGACGGCCGATTAATGGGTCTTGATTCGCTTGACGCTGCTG: 5430 a.u.
CTTCTGTAAATTTGTCACGGAACTTGACGCGCCCCGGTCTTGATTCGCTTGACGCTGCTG: 3570 a.u.
CTTCTGTAAATTTGTCATGTGGGTGGACGCGCCCCGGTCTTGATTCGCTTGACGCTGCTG: 8670 a.u.
CTCGTAATCTGGTCCCACGTCTTGCACTATATGCAGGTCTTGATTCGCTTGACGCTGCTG: 6720 a.u.
TTTTTTGCGTCCTACAGCGTGATGGAAATTTCGCCTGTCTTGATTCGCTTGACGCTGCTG: 5900 a.u.
GTCTTGTCTCATTGATGAGTGGGTGTCCCCACTTCAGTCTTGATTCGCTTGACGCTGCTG: 4690 a.u.
ATACTCACAATAATACATGTGTCTTAGAACCTCAGTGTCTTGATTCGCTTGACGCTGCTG: 8750 a.u.
CTAAAATCAGCATCGCACATGGACGGTTAGCTCGCGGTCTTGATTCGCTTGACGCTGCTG: 10200 a.u.
TGGAGGGTGTACTATCACATGCAGCCTTTGTTTCTAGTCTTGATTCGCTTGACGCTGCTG: 7470 a.u.
AAAGCGGTAATTTGCCACGTGTTTTCACATATCTATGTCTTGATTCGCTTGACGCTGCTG: 18600 a.u.
CGTCCTAGTGATTGTCCTGTGGGTGCCATGAGGAAGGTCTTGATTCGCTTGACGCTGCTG: 6970 a.u.
GTCTTGTCTCATTGTCACGTCACTTTCCCCACTTCAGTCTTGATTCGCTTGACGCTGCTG: 5450 a.u.
CTAACGAAGGTTTGGAACGTGGGTGACAAGCCAAGTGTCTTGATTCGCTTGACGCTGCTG: 11700 a.u.
CATACCCAACCTTGTCACGGGACTTAAGATATTTGTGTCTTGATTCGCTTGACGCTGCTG: 6720 a.u.
AAAATGGAAAAGTTACACGTGGAAGATACAACAACCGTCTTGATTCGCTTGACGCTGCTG: 15900 a.u.
CATACCCAACCTTGCTCAGTGGGTGAAGATATTTGTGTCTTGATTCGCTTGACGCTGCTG: 3980 a.u.
CTGTAGTAACAAAAACATGTGGGATGCCAAATTGTAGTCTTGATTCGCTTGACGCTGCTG: 12000 a.u.

Set 2 — technique: DHFR PCA, deep sequencing; matrix: yeast; added: (+)-ABA 0.032 µM; relative to: wild-type fitted maximum; reading: higher = stronger binding; quantity: relative binding score
Target: ABI1, truncated, D143A, DHFR fusion (Arabidopsis thaliana)
Setting: methotrexate growth selection, single substitutions
Parent: PYL1, truncated, DHFR fusion (Arabidopsis thaliana); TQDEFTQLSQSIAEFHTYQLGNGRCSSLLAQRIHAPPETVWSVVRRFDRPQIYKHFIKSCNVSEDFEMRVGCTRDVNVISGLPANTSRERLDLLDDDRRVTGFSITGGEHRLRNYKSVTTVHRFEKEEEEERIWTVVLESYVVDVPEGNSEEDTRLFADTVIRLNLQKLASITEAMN
V145I: 40.2%
Y115D: 3.63%
E38T: 4.42%
K58D: -8.98%
Q31Y: -2.88%
M68Y: -0.954%
L82G: 44.4%
T154R: -4.45%
I133L: 23.7%
T17N: -1.57%
P50T: -1.37%
S11F: 11.6%
V62E: 0.704%
S117M: 1.69%
R88W: -3.06%

Set 3 — technique: aptamer microarray, sandwich; molecule type: DNA with 2'F-ANA; matrix: in vitro; concentration: 200 nM; added: Cy3 exosite-II aptamer, 400 nM; reading: higher = stronger binding; quantity: mean fluorescence intensity; oligonucleotide: GGTTGGTGTGGTTGG
Target: Prothrombin, mature alpha-thrombin (F2, Homo sapiens, UniProt P00734)
Setting: whole 15-mer aptamer, many near background
2'F-ANA at 1 8 11 12 14: 72.2 a.u.
2'F-ANA at 1 2 4 5 14: 48.7 a.u.
2'F-ANA at 3 8 9 10 14: 507 a.u.
2'F-ANA at 2 3 6 11 12 15: 792 a.u.
2'F-ANA at 1 3 4 6 7 8 10 11 13 14 15: 54.3 a.u.
2'F-ANA at 2 5 6 7 8 10 11 13 15: 69.1 a.u.
2'F-ANA at 1 3 4 6 9 12 14 15: 78.2 a.u.
2'F-ANA at 4 5 8: 75.4 a.u.
2'F-ANA at 3 4 8 9 14: 327 a.u.
2'F-ANA at 5 7 9 10 13 14 15: 63.7 a.u.
2'F-ANA at 1 3 4 5 7 8 14: 82.2 a.u.
2'F-ANA at 1 3 4 7 10 14 15: 55.4 a.u.
2'F-ANA at 2 6 8 13 14 15: 121 a.u.
2'F-ANA at 2 4 6 8 9 10 15: 80.1 a.u.
2'F-ANA at 2 3 4 5 6 7 8 9 12 15: 178 a.u.
2'F-ANA at 5 6 7 9 12 13 14: 48.7 a.u.
2'F-ANA at 3 4 5 6 7 12 13: 127 a.u.
2'F-ANA at 1 3 5 8 14: 46.3 a.u.
2'F-ANA at 2 3 4 5 6 7 8 9 15: 132 a.u.
2'F-ANA at 4 6 7 8 9 13 14: 180 a.u.
2'F-ANA at 1 2 3 5 6 10 13 14: 43.6 a.u.
2'F-ANA at 1 4 5 7 9 11 12 13 14 15: 76.7 a.u.
2'F-ANA at 2 4 5 6 7 8 9 11 12 13 14: 55.3 a.u.
2'F-ANA at 1 3 4 6 7 9 11 13 14: 55.7 a.u.

Set 4 — target: CCNB1, cyclin fold, Cln2 fusion (human); technique: yeast growth competition, sequencing; matrix: yeast; setting: weak parent motif; relative to: not given; reading: higher = stronger binding; quantity: normalised enrichment score
Parent: SLBP docking peptide (human); ARYKRKLLINDFG
ALYKRKLLINDFG [R2L]: 0.53
ARYKRKLDINDFG [L8D]: 0.232
ARYKRKCLINDFG [L7C]: 1.08
ARYKRKLLINDFS [G13S]: -0.13
ARFKRKLLINDFG [Y3F]: 0.383
ARCKRKLLINDFG [Y3C]: 0.396
ARYKRKLLINDFF [G13F]: 1.08
ARYKRGLLINDFG [K6G]: 0.585
ARYKRKLLLNDFG [I9L]: 0.846
ARYKRKLLINDFW [G13W]: 0.441
ARYKRKLLINDVG [F12V]: 0.302
ARYKKKLFINDFG [R5K L8F]: 0.291
ARYKRKLLISDFG [N10S]: 0.891
ARYKRKLLRNDFG [I9R]: 0.972
ARYKRKLLCNDFG [I9C]: 0.774
ARYKRKLLINDFH [G13H]: 1.31
ARYKRKLEINDFG [L8E]: 0.801
AGYKRKLLINDFG [R2G]: 0.38
ATYKRKLLINDFG [R2T]: 1.01
ACYKRKLLINDFG [R2C]: 0.244
ARYKRKLMINDFG [L8M]: 1.43
ARYKRKLLINDGG [F12G]: 1.03
